Measured values collected from several papers.
A part holds a random share of what one study measured.

Set 1
Target: Sal-like protein 4, full length isoform B (SALL4, Homo sapiens, UniProt Q9UJQ4-2, residues 1-616)
Method: universal PBM
Molecule type: double-stranded DNA, one strand shown
Matrix: in vitro
Tested at: not given
Notes: 8-mer, flanks averaged, mean of replicates
Reading: higher = stronger binding
| Strand | E-score |
| --- | --- |
| AGGATAAA | 0.255 |
| ATCGTTAA | 0.143 |
| TGGCGGAA | -0.161 |

Set 2
Target: Histone acetyltransferase KAT6A, winged helix 1, GST fusion (KAT6A, Homo sapiens, UniProt Q92794, residues 1-85)
Method: protein binding microarray
Molecule type: double-stranded DNA, one strand shown
Matrix: in vitro
Tested at: not given
Notes: 8-mer, flanks averaged, mean of 2 arrays, mostly near background
Relative to: not given
Reading: higher = stronger binding
Construct (chain): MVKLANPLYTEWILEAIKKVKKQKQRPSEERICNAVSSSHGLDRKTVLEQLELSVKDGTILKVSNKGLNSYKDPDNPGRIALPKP
| Strand | E-score |
| --- | --- |
| GTGGCGTA | 0.0799 |
| CCGCAGTA | 0.149 |
| GCCATGTA | 0.0196 |
| CAGCCTCC | -0.119 |

Set 3
Target: Centromere-binding protein 1, full length, N-terminal tag (CBF1, Saccharomyces cerevisiae, UniProt P17106, residues 1-351)
UniProt P17106, sequence (whole entry, looked up): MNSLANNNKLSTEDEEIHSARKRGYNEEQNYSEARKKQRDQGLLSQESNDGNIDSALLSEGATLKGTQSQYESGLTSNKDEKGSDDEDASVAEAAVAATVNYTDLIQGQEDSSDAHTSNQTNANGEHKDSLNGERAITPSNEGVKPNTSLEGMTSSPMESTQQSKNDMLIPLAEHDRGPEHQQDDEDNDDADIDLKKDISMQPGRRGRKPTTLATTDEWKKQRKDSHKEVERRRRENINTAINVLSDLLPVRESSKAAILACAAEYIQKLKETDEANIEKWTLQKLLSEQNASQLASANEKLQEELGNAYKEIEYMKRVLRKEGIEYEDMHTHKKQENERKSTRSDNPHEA
Method: protein-binding microarray
Molecule type: double-stranded DNA, one strand shown
Matrix: in vitro
Tested at: 0.8 µM
Notes: whole 60-bp probe, no competitor
Reading: higher = stronger binding
| Strand | fluorescence intensity [a.u.] |
| --- | --- |
| GAATGCTTATATAATCACGAACACCTTTACGTATAGGTCTTGATTCGCTTGACGCTGCTG | 587 |
| TGTACGAAGCTATCGTGCATGACTATAGTAGTTAGGGTCTTGATTCGCTTGACGCTGCTG | 523 |
| CTACTCTTCAGCTATCACAAGTCATTAGATTCTTTCGTCTTGATTCGCTTGACGCTGCTG | 644 |
| CTAGATAATAATTGTGACCCCATCATGGAAATGTTCGTCTTGATTCGCTTGACGCTGCTG | 552 |

Mixed results
| Substance | target | assay | system | setting | how to read | measurement | value |
| --- | --- | --- | --- | --- | --- | --- | --- |
| PhoQ, residues 284 288 289 292 302 303 TTSMTC | PhoP, residues 12 14 15 18 19 NNFVT (Escherichia coli, UniProt P23836) | Sort-seq, refers to: YFP reporter | E. coli | PhoQ-PhoP variant library, added: 10 µM Mg2+ | relative to: high Mg2+ state, higher = stronger signaling | fold induction | 0.11 |

A few entries again (mixed results):
| Substance | target | assay | system | setting | how to read | measurement | value |
| --- | --- | --- | --- | --- | --- | --- | --- |
| PhoQ, residues 284 288 289 292 302 303 TTSMTC | PhoP, residues 12 14 15 18 19 NNFVT (Escherichia coli, UniProt P23836) | Sort-seq, refers to: YFP reporter | E. coli | PhoQ-PhoP variant library, added: 10 µM Mg2+ | relative to: high Mg2+ state, higher = stronger signaling | fold induction | 0.11 |
